# Measurements pooled from the literature.
# Parts stem from different laboratories: compare values within a part only.
# Sequence of UniProt Q15746 (whole entry, looked up): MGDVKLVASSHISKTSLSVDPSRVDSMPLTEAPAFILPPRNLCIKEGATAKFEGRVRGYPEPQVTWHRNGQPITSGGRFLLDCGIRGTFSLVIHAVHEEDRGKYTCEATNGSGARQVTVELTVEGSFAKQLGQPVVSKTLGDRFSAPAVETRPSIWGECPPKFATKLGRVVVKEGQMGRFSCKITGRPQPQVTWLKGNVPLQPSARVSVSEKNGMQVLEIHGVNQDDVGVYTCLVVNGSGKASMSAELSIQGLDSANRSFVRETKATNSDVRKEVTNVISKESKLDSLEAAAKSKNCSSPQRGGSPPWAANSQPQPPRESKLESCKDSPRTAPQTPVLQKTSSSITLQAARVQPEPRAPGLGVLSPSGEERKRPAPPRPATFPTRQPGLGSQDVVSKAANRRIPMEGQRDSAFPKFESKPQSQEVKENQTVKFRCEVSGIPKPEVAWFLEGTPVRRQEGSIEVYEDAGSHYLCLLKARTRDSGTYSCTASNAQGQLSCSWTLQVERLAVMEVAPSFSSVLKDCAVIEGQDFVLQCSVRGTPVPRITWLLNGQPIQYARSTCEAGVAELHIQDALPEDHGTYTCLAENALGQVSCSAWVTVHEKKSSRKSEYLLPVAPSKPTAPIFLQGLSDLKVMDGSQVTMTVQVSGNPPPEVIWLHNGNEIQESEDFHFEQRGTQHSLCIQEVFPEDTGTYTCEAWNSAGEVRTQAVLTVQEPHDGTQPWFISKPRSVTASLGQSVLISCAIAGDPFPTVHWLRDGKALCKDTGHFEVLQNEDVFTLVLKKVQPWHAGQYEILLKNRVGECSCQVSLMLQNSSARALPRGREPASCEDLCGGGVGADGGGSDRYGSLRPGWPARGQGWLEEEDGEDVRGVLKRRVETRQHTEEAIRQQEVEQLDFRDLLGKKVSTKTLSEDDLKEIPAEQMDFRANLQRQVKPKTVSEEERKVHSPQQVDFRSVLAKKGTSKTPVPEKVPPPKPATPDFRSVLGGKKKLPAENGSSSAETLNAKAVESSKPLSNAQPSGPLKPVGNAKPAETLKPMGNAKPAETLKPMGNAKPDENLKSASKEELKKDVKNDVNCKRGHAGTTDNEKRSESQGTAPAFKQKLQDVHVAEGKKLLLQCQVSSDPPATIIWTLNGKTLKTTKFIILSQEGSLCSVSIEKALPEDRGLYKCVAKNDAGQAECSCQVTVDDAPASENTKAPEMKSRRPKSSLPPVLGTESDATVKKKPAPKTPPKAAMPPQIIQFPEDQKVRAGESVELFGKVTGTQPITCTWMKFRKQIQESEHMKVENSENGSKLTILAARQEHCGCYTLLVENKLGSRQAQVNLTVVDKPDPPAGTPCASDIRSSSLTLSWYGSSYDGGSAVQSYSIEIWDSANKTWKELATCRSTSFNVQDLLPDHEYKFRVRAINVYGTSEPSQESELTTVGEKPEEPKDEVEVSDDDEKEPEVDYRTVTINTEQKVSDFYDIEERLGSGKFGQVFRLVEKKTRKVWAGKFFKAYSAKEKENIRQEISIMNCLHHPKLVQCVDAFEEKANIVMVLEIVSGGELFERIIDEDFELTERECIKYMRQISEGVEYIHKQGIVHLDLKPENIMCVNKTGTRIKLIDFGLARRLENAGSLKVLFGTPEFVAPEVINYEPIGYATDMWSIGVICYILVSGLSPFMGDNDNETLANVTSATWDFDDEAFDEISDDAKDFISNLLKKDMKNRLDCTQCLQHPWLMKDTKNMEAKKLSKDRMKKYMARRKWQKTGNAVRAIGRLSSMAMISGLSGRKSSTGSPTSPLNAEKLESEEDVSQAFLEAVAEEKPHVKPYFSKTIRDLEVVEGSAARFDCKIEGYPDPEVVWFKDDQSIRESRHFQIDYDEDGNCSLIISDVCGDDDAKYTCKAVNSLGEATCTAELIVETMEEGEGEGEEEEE
# Sequence of UniProt Q96BR1 (whole entry, looked up): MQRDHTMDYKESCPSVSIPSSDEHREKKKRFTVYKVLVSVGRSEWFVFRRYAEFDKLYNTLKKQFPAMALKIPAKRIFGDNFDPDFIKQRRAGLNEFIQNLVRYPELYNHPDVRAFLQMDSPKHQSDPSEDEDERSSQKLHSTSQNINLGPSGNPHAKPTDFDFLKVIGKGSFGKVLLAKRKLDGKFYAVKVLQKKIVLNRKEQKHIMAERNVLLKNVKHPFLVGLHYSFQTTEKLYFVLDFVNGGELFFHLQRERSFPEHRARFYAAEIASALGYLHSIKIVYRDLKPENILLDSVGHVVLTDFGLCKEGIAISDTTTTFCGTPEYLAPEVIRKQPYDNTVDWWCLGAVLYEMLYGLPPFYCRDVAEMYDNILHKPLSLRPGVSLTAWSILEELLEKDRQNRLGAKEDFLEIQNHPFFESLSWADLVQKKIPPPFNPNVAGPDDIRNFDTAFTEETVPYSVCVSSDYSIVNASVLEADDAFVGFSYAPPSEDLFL
# Sequence of UniProt O14733 (whole entry, looked up): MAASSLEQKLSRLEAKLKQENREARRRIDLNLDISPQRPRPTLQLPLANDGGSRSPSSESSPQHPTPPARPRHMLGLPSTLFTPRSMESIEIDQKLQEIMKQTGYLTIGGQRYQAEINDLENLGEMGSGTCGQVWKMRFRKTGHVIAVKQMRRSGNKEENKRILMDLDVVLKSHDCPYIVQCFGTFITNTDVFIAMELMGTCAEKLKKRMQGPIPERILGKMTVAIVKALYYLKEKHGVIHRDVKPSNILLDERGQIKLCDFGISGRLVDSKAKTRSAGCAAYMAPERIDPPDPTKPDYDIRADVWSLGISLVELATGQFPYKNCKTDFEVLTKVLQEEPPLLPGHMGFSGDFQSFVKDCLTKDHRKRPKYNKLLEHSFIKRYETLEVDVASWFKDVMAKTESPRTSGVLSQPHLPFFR
# Sequence of UniProt Q07912 (whole entry, looked up): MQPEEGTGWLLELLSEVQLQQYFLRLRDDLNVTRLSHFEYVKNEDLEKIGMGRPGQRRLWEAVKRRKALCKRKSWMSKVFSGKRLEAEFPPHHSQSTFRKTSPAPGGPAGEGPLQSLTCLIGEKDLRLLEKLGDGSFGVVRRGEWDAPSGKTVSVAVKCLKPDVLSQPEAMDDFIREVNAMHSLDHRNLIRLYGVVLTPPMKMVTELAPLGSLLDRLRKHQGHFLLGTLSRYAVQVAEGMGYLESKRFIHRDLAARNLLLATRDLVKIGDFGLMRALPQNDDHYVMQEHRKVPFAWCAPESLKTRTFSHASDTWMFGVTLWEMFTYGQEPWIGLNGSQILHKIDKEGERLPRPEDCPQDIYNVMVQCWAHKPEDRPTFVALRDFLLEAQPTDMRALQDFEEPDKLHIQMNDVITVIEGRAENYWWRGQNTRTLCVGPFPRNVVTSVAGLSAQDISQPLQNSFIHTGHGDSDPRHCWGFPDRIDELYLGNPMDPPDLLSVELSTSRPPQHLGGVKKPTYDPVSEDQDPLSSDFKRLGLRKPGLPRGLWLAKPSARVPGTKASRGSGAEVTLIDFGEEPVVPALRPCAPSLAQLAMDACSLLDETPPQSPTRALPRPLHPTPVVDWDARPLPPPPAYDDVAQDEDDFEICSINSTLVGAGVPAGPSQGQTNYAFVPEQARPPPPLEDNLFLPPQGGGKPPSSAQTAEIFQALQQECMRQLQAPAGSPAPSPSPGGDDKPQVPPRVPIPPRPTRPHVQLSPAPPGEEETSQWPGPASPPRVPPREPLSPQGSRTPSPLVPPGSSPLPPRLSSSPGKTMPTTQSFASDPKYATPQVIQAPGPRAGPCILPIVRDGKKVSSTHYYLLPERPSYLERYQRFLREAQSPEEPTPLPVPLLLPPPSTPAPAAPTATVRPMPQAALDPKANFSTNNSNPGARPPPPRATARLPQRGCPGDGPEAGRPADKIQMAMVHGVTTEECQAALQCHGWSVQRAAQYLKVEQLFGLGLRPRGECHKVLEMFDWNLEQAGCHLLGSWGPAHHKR
# Sequence of UniProt Q9UPZ9 (whole entry, looked up): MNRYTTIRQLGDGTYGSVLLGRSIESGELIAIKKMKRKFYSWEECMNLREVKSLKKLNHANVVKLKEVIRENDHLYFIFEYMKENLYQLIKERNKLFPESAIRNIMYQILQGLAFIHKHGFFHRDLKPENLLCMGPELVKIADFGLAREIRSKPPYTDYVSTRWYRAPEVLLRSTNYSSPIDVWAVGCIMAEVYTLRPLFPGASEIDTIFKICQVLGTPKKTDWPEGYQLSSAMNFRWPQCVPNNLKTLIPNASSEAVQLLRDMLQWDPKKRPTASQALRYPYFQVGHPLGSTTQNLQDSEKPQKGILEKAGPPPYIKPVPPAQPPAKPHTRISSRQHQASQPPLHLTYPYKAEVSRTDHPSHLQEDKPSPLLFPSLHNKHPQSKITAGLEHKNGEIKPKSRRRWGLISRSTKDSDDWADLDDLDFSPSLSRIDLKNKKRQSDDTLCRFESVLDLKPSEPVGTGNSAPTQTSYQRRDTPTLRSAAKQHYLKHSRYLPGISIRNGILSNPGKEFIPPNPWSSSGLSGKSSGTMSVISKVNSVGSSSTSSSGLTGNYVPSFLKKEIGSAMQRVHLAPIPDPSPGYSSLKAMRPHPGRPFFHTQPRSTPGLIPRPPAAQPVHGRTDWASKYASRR

# Study 1
# Target: TGF-beta receptor type-2 (TGFBR2, Homo sapiens, UniProt P37173)
# Sequence of UniProt P37173 (whole entry, looked up): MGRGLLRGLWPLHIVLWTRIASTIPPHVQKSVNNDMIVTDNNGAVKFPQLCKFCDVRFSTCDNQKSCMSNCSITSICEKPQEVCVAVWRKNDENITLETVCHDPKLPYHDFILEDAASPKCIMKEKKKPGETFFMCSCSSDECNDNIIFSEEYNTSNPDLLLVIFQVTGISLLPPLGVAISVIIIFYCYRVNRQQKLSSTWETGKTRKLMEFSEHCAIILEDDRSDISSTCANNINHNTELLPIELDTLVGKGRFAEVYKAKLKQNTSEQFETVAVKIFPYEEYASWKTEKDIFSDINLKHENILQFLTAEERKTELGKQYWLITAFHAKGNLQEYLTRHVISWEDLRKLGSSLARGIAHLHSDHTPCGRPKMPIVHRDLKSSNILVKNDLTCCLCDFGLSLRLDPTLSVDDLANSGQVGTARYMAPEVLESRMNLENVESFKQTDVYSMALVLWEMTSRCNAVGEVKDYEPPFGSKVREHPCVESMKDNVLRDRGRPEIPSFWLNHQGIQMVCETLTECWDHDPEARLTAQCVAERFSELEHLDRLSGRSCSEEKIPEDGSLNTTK
# Observed: enzyme activity
# Action: inhibitor
# Tested at: 0.5 µM
# Relative to: control
Structure (SMILES),remaining activity [%]
O=C(CCCc1ccc(-c2ccccc2F)cc1)Nc1ccc(O)cc1,101
O=C1NC(=O)C(c2cn(CCCO)c3ncccc23)=C1c1cnccn1,122
OCC(O)CCON=C1C(c2c(O)[nH]c3ccccc23)=Nc2ccccc21 (stereo not drawn),119
N#CC(C#N)=C(N)/C(C#N)=C/c1ccc(O)cc1,113
Cn1sc(=O)n(Cc2ccccc2)c1=O,123
O=C1NC(=O)C(c2cn(CCCn3ccnc3)c3ccccc23)=C1Nc1ccccc1,134
Oc1ccc(-c2nc(-c3ccncc3)c(-c3ccc(F)cc3)[nH]2)cc1,127
Nc1ncnc2n[nH]c(Nc3ccc(F)cc3)c12,101
Cc1nc(-c2ccccc2)c(-c2ccncc2)o1,133
O=S(=O)(c1cccc2cnccc12)N1CCCNCC1,97
COc1cc2ncnc(Nc3ccc(F)c(Cl)c3)c2cc1OCCCN1CCOCC1,93.8
Cn1c2ccccc2c2c3c(c4c5ccccc5n(CCC#N)c4c21)CNC3=O,117
O=c1c2ccccc2[nH]c(=S)n1CCN1CCC(=C(c2ccc(F)cc2)c2ccc(F)cc2)CC1,119
Cc1ccc(NC(=O)c2ccc(CN3CCN(C)CC3)cc2)cc1Nc1nc(-c2cccnc2)cs1,101

# Study 2
# Observed: AlphaScreen signal
# Method: AlphaScreen counter screen
# Matrix: His6 peptide without bromodomain
# Tested at: 50 µM
# Notes: assay interference check
Structure (SMILES),inhibition [%]
CCc1ccc(-c2csc3nc[nH]c(=O)c23)cc1,11.3
COc1cc2c(N3CCN(C(=O)Nc4ccc(OC(C)C)cc4)CC3)ncnc2cc1OCCCN1CCCCC1,35.6
COc1cc(N2CCC(N3CCN(C)CC3)CC2)ccc1Nc1ncnc(Nc2ccccc2S(=O)(=O)C(C)C)n1,50.5
N#C/C(=C(/N)SC1C=CC=CC1)c1cccc(C(O)c2ccncc2)c1 (stereo not drawn),11.1
Nc1ccccc1NC(=O)CSc1nc2ccccc2s1,17.1
COC(=O)CCC(=O)NNC(=O)c1c(O)c2ccccc2[nH]c1=O,17.1

# Study 3
# SMILES: NS(=O)(=O)c1cc(NC(=O)Cc2ccccc2)ccc1Oc1cccc(Cl)c1
# Method: competition with immobilised ligand
# Tested at: 1 µM
target,assay,remaining binding
"MYLK (Homo sapiens, UniProt Q15746)",cell-free assay,73%
"TNK2 (Homo sapiens, UniProt Q07912)",cell-free assay,79%
"MAP2K7 (Homo sapiens, UniProt O14733)",cell-free assay,91%
"Ribosomal protein S6 kinase alpha-4, C-terminal kinase domain (RPS6KA4, Homo sapiens, UniProt O75676)",cell-free assay,90%
"CILK1 (Homo sapiens, UniProt Q9UPZ9)",binding,100%
"SGK3 (Homo sapiens, UniProt Q96BR1)",cell-free assay,83%

# Study 4
# Species: human
# Matrix: microsomes or S9
# Tested at: 2 µM
# Time: 0.5 h
SMILES,remaining compound [%]
CCCCN(C)Cc1cc(=O)oc2cc(C)c(O)cc12,82.5
CCCc1ncncc1C(=O)N1CC[C@@](O)(c2ccccc2)[C@H]2CCCC[C@@H]21,1.1
Cc1ccc(S(=O)(=O)n2cc(-c3cc(Cl)c(O)c(Cl)c3)c3c(N4CCN(C(=O)c5ccccc5)CC4)ncnc32)cc1,61.5
O=C1CCC2=C1C(c1ccccc1)Nc1ccccc1N2 (stereo not drawn),86.6
COc1cc2c(cc1OC)C1(c3ccc4c(c3)OCO4)OC(=O)C(=O)N1CC2 (stereo not drawn),7.15
Cc1cc(C)cc(C(O)CN(C)Cc2cc(Cl)cn2C)c1 (stereo not drawn),5.15
O=C1c2[nH]nc(-c3ccccc3)c2C(c2ccccn2)N1CCc1c[nH]c2ccccc12 (stereo not drawn),10.9

# Excerpt of the above (study 3):
target,assay,remaining binding
"TNK2 (Homo sapiens, UniProt Q07912)",cell-free assay,79%
"Ribosomal protein S6 kinase alpha-4, C-terminal kinase domain (RPS6KA4, Homo sapiens, UniProt O75676)",cell-free assay,90%
"CILK1 (Homo sapiens, UniProt Q9UPZ9)",binding,100%
"MAP2K7 (Homo sapiens, UniProt O14733)",cell-free assay,91%
"MYLK (Homo sapiens, UniProt Q15746)",cell-free assay,73%
